{"data": "Results of several laboratories", "note": "Parts stem from different laboratories: compare values within a part only."}
{"data": "Set 1", "target": "PABPC1L2, full length, GST fusion (mouse, UniProt A0ABA7IW68)", "method": "RNAcompete", "form": "RNA", "matrix": "in vitro", "concentration": "20 nM", "notes": "7-mer, probes averaged, single round", "baseline": "mean of 7-mers", "reading": "higher = stronger binding", "Construct (chain)": "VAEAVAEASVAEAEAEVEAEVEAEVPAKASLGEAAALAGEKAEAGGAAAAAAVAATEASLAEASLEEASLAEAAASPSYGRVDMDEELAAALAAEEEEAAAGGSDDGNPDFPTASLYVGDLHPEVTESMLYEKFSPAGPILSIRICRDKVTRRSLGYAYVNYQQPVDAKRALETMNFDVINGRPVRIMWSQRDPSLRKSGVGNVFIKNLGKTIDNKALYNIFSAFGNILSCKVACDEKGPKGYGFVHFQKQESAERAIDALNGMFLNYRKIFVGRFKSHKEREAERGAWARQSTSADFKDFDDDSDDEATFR"}
{"Strand": "AAUUUUU", "7-mer Z-score": -0.012}
{"Strand": "UACCGUG", "7-mer Z-score": -0.0772}
{"Strand": "AUCGGGG", "7-mer Z-score": 0.425}
{"Strand": "GCCUCCA", "7-mer Z-score": -0.387}
{"Strand": "UGAACGG", "7-mer Z-score": -0.182}
{"Strand": "ACACGUU", "7-mer Z-score": -0.275}
{"Strand": "AUUGAUG", "7-mer Z-score": -0.175}
{"Strand": "CCGUUGG", "7-mer Z-score": -0.191}
{"Strand": "GAUCUAA", "7-mer Z-score": 0.046}
{"Strand": "UGUUGUU", "7-mer Z-score": -0.436}
{"Strand": "GACACUG", "7-mer Z-score": -0.0663}
{"Strand": "ACGAGAG", "7-mer Z-score": 0.187}
{"Strand": "GGGUCCU", "7-mer Z-score": -0.0373}
{"Strand": "UUGCAGG", "7-mer Z-score": -0.137}
{"Strand": "UGGAGUU", "7-mer Z-score": -0.204}
{"Strand": "UAGACCA", "7-mer Z-score": -0.0428}
{"data": "Set 2", "target": "Histone acetyltransferase KAT6A, winged helix 1, GST fusion (KAT6A, Homo sapiens, UniProt Q92794, residues 1-85)", "method": "protein binding microarray", "form": "double-stranded DNA, one strand shown", "matrix": "in vitro", "concentration": "not given", "notes": "8-mer, flanks averaged, mean of 2 arrays, mostly near background", "baseline": "not given", "reading": "higher = stronger binding", "Construct (chain)": "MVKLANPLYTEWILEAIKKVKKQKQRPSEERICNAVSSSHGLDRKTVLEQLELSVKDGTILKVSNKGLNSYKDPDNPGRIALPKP"}
{"Strand": "AAGACGCT", "E-score": 0.0527}
{"Strand": "GTTATAGA", "E-score": -0.177}
{"Strand": "CCACCCTC", "E-score": -0.176}
{"Strand": "ATCGAAAA", "E-score": -0.0821}
{"Strand": "AGTCTGAT", "E-score": -0.274}
{"Strand": "GCCAAAAC", "E-score": -0.041}
{"Strand": "ACCTCCAA", "E-score": -0.264}
{"Strand": "ACCTGGAA", "E-score": -0.207}
{"Strand": "CCGAACTA", "E-score": 0.0731}
{"Strand": "CGAGTTTC", "E-score": -0.0961}
{"Strand": "AACGATGC", "E-score": -0.0488}
{"Strand": "ATACGGTA", "E-score": 0.222}
{"Strand": "ATCGCAAG", "E-score": -0.0633}
{"Strand": "GGATGATA", "E-score": -0.15}
{"Strand": "AGGTCGTC", "E-score": 0.0311}
{"Strand": "CTTGCCAA", "E-score": -0.276}
{"Strand": "AATAATAA", "E-score": -0.141}
{"Strand": "ACTGTTAT", "E-score": -0.117}
{"data": "Set 3", "target": "RNA binding protein fox-1 homolog 2, RRM domain, GST-SBP tag (RBFOX2, Homo sapiens, UniProt O43251-10, residues 100-194)", "method": "RNA Bind-n-Seq", "form": "RNA", "matrix": "in vitro", "concentration": "365 nM", "notes": "natural RNA segment, single round, ends assumed", "baseline": "no-protein control", "reading": "higher = stronger binding", "shared flanks, not repeated": "GGGAGUUCUACAGUCCGACGAUC … UGGAAUUCUCGGGUGCCAA", "Target sequence (chain)": "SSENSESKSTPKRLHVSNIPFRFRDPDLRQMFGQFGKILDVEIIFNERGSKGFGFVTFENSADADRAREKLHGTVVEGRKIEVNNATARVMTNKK"}
{"Strand": "GUUAUACAUGGUUGGGGUUUAAAAGCACAAAGAGAAACCUCCCCCUCCUGGCUUUCGUGGCCAUCUUUGUCCAUCUUAGGUGGGGACUUGAUCUUAUUUAAGGUCUCCAA", "RBNS enrichment (R)": 0.217}
{"Strand": "AAACAACUACAUUUUAAAAACUGACUUAAUGCUCUUCAAAAUAAAACAUCACCUAUUUAAUGUUUUUAAUCACAUUUUGUAUGGAGUUAAAUAAAGUACAGUGCUUUUGU", "RBNS enrichment (R)": 0.727}
{"Strand": "UAAGGGUUUGUUUUGUUUUGUUUUUUAAAGUAAGGCUGUCUCUCUUUCCCAGUAACAUUCCUGAGUCUACUGUCCUUAUCUUAGUGUUGUACUUGCAUGACAUGGAUAUC", "RBNS enrichment (R)": 8.25}
{"Strand": "AUACUACAUUCAGCUUACCAUAAAUAUUUGUCCUUGAAGGGUUUGAUUUAAUAUUUUCACAGACUAGGCCAUGUGCAAAAUUAGAGUUCCCUGUGUAACCCCAGCCAGCA", "RBNS enrichment (R)": 4.35}
{"Strand": "CUGUCAAGAGGGUGGGUCCCCAUCCCCGUGUGUGGAAAAGAGACAGUGUGGCUUGCUGCCAGGCUCAGGCCAGGUCUGGACAGCUCUCACUCUCCUCAAGCCAGGACUAC", "RBNS enrichment (R)": 0.196}
{"Strand": "UUUUUACUGUACCUUUUCUAUGUCUAAAUAUACAAAUGUUUUACCAUUGUGUUACAGUUGCCUACAGUAUGAUUACAGUAACAUUCUGUACAGUGCUAUAGCUGAAGAGU", "RBNS enrichment (R)": 0.314}
{"Strand": "AGAAUGUACAUCAUCCCUCUUGGCCCAUUACAGUACUGCUCUCAGGUUCCUAUCAGUCCAUAUAAACUCACUGACCAUAUGGUCAGCCUGGACCGGCCUUCUCAGAUGGC", "RBNS enrichment (R)": 0.242}
{"Strand": "UAUUCCAGCGAUGUGACUUUUUUCAGAAUAUUUCUUGGAAUCAUAUUCAGAGUCUGGGGCUGUGUGUUGAGCAGCCUUAAGGAUGCUAGACACUCAUUUAGUGCCCAGGG", "RBNS enrichment (R)": 0.236}
{"data": "Set 4", "target": "Ras GTPase-activating protein-binding protein 1, RRM domain (G3BP1, Homo sapiens, UniProt Q13283)", "method": "RNA Bind-n-Seq", "form": "RNA", "matrix": "in vitro", "concentration": "1 µM", "notes": "whole 134-nt RNA, ends assumed", "with": "150 mM KCl", "baseline": "input library", "reading": "higher = stronger binding", "shared flanks, not repeated": "GGGAGUUCUACAGUCCGACGAUC … UGGAAUUCUCGGGUGUCAAGG", "sequence of UniProt Q13283 (whole entry, looked up)": "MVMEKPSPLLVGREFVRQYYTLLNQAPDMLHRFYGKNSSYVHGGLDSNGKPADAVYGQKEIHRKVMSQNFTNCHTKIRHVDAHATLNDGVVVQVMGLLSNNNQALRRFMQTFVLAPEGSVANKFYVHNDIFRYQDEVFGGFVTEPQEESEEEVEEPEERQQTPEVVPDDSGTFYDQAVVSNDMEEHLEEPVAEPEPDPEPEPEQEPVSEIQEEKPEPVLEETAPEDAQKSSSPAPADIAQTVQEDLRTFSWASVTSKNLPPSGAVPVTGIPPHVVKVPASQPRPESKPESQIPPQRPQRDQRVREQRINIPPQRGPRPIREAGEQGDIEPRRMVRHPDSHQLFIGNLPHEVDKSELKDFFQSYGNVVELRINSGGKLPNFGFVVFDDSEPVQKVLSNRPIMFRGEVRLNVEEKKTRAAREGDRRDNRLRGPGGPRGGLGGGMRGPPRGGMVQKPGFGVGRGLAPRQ"}
{"Strand": "UCCUCAAGUCCUGUGCUACACAUCGUAUGUACCGAAUCGGAGGAAAGGUGGAAAGUAUUAUGUUACGCCGUUCGGAUCUGCACUUCCAGC", "log2 enrichment": -0.203}
{"Strand": "GGCACCCUUUGAAGGGGAGGAUGAAGAUGAACUCUUCCAAUCCAUCAUGGAACACAACGUAGCCUAUCCCAAGUCUAUGUCCAAGGAAGC", "log2 enrichment": -0.211}
{"Strand": "UCCUGUGCUACACAUCGUAUGUACCGAAUCGGAAAAAAGGAAAAAAGGGGAAAAAAGGGGAAAGUAUUAUGUUACGCCGUUCGGAUCUGC", "log2 enrichment": -0.0374}
{"Strand": "UCUAUUCAUAAGAACCCCAACACAUCGGAGCCCCAACACCUGUUGGUGAUGAAGGGCGCCCCAGAAAGGAUCCUAGACCGUUGCAGCUCU", "log2 enrichment": 0.0574}
{"Strand": "AGUCCUGUGCUACACAUCGUAUGUACCGAAUCGGGCCCCGGGCCCCGGGGCCCCGGGAAAGUAUUAUGUUACGCCGUUCGGAUCUGCACU", "log2 enrichment": -0.666}
{"Strand": "GUCCUGUGCUACACAUCGUAUGUACCGAAUCGGGGCCCCCCGGCCCCCCGGCCCCCCGGAAAGUAUUAUGUUACGCCGUUCGGAUCUGCA", "log2 enrichment": -0.397}
{"Strand": "CAAGUCCUGUGCUACACAUCGUAUGUACCGAAUCGGUUUGGUUUUUUUGGUUUGGAAAGUAUUAUGUUACGCCGUUCGGAUCUGCACUUC", "log2 enrichment": -0.336}
{"Strand": "AGUCCUGUGCUACACAUCGUAUGUACCGAAUCGGGGUUUUGGGGUUUUGGUUUUGGGAAAGUAUUAUGUUACGCCGUUCGGAUCUGCACU", "log2 enrichment": -0.302}
{"Strand": "AAGUCCUGUGCUACACAUCGUAUGUACCGAAUCGGGCCCCGGCCCCGGGCCCCGGGGAAAGUAUUAUGUUACGCCGUUCGGAUCUGCACU", "log2 enrichment": -0.98}
{"data": "Set 5", "target": "Interferon regulatory factor 5, full length, phosphomimetic (IRF5, Homo sapiens, UniProt Q13568-2, residues 1-514, S451D/S453D/S456D/S462D)", "method": "protein-binding microarray", "form": "double-stranded DNA, one strand shown", "matrix": "in vitro", "concentration": "940 nM top", "notes": "60-bp whole probe", "with": "salmon DNA 0.4 mg/ml", "baseline": "random background probes", "reading": "higher = stronger binding", "shared flanks, not repeated": "GCCTAGCAC … GTCTTGATTCGCTTGACGCTGCTG"}
{"Strand": "TCAGGTTTCTGGTTTATACTGTGCTAG", "fitted relative affinity [z-score]": 3.17}
{"Strand": "GAGGATATCAGTATCGAGACGTGCTAG", "fitted relative affinity [z-score]": 1.58}
{"Strand": "TTAGGTTTCCCTCTCCTTTAGTGCTAG", "fitted relative affinity [z-score]": 2.46}
{"Strand": "TTAAATTTCAGTCTCGATTAGTGCTAG", "fitted relative affinity [z-score]": 4.38}
{"Strand": "CTTTAACTCATTCTCCACTTGTGCTAG", "fitted relative affinity [z-score]": 1.23}
{"Strand": "TGTGCTTTCCTGATGGTCCTGTGCTAG", "fitted relative affinity [z-score]": 0.238}
{"Strand": "TCATTTTTAGCTTGCAAACTGTGCTAG", "fitted relative affinity [z-score]": -0.21}
{"Strand": "GACGGTTTCGACTTTCAGGACGTGCTA", "fitted relative affinity [z-score]": 7.16}
{"Strand": "TTAGATATCGGATTTCGATTAGTGCTA", "fitted relative affinity [z-score]": 0.53}
{"Strand": "GTCGATTTCAGACTGGAGACGTGCTAG", "fitted relative affinity [z-score]": -0.107}
{"Strand": "TTAGGACTGCACTATCGGTTAGTGCTA", "fitted relative affinity [z-score]": -0.0612}
{"Strand": "GACGGACTGGGACTGAGGACGTGCTAG", "fitted relative affinity [z-score]": -0.613}
{"Strand": "GACGATTTCGGGTTCCGAGACGTGCTA", "fitted relative affinity [z-score]": 0.541}
{"Strand": "TTAGAACTGAGTTTCGCTTAGTGCTAG", "fitted relative affinity [z-score]": 4.67}
{"Strand": "AACACTCTTCTTTTGCTAATGTGCTAG", "fitted relative affinity [z-score]": 1.57}
{"Strand": "TTAGCTATCGGGACTGGGTTAGTGCTA", "fitted relative affinity [z-score]": 0.476}
{"note": "For quick reference, copied from above (set 4):"}
{"Strand": "GUCCUGUGCUACACAUCGUAUGUACCGAAUCGGGGCCCCCCGGCCCCCCGGCCCCCCGGAAAGUAUUAUGUUACGCCGUUCGGAUCUGCA", "log2 enrichment": -0.397}
{"Strand": "UCUAUUCAUAAGAACCCCAACACAUCGGAGCCCCAACACCUGUUGGUGAUGAAGGGCGCCCCAGAAAGGAUCCUAGACCGUUGCAGCUCU", "log2 enrichment": 0.0574}
{"Strand": "UCCUGUGCUACACAUCGUAUGUACCGAAUCGGAAAAAAGGAAAAAAGGGGAAAAAAGGGGAAAGUAUUAUGUUACGCCGUUCGGAUCUGC", "log2 enrichment": -0.0374}
{"Strand": "AGUCCUGUGCUACACAUCGUAUGUACCGAAUCGGGGUUUUGGGGUUUUGGUUUUGGGAAAGUAUUAUGUUACGCCGUUCGGAUCUGCACU", "log2 enrichment": -0.302}
{"Strand": "AGUCCUGUGCUACACAUCGUAUGUACCGAAUCGGGCCCCGGGCCCCGGGGCCCCGGGAAAGUAUUAUGUUACGCCGUUCGGAUCUGCACU", "log2 enrichment": -0.666}
{"Strand": "AAGUCCUGUGCUACACAUCGUAUGUACCGAAUCGGGCCCCGGCCCCGGGCCCCGGGGAAAGUAUUAUGUUACGCCGUUCGGAUCUGCACU", "log2 enrichment": -0.98}
